Assay results pooled from the literature.
Numbered parts are unrelated; each lists some results of a single study. Changes are numbered by the printed parent chain.

Block 1
Target: CCNF, cyclin fold, Cln2 fusion (human)
Method: yeast growth competition, sequencing
Sample: yeast
Notes: strong parent motif
Reference: not given
Direction: higher = stronger binding
Starting sequence: CDC6 docking peptide (human); TLKGRRLVFDNQL
Substitution	normalised enrichment score
R5A	0.78
R6H	5.99
L13I	7.96
Q12E	9.08
N11L	8.74
Q12G	8.87
L13E	8.91
K3R	8.89
K3G	6.26
G4S	4.61
N11R	8.65

Block 2
Target: Interferon regulatory factor 7, full length, phosphomimetic (IRF7, Homo sapiens, UniProt Q92985, residues 1-503, S471D/S472D/S475D/S476D/S477D/S483D/S484D/S487D)
Method: protein-binding microarray
Form: double-stranded DNA, one strand shown
Sample: in vitro
Tested at: 2200 nM top
Notes: 60-bp whole probe
With: salmon DNA 0.4 mg/ml
Reference: random background probes
Direction: higher = stronger binding
Constant ends, left off below: GCCTAGCAC … GTCTTGATTCGCTTGACGCTGCTG
Residues (chain): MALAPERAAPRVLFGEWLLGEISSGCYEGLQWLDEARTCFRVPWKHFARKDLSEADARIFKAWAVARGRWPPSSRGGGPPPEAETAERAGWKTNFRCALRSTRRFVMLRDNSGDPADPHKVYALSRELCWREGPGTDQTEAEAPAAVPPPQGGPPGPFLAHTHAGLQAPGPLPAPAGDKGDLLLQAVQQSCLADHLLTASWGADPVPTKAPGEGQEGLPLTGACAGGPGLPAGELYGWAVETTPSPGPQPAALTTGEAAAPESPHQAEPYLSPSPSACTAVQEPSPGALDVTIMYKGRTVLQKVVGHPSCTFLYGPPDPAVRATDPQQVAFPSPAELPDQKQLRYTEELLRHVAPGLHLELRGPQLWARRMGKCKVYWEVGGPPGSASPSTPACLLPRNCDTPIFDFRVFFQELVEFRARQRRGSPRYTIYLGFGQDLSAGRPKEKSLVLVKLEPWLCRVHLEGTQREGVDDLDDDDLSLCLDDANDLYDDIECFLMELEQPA
Strand	fitted relative affinity [z-score]
GACGGTCTCCTTTTCGTGACGTGCTAG	1.53
TAGAGTAGCTTTCTGAGGGCGTGCTAG	-0.295
TACGGTCTCCTTATCCTGACGTGCTAG	1.68
TACGGTATCGGTATCGGGACGTGCTAG	0.498
GACGATCTTAGTTTCGAGACGTGCTAG	4.05
GACGGACTGGCTATCGGGACGTGCTAG	-0.76
TTTTGCTTTCTTTTTGCACTGTGCTAG	10.2
GCCGGACTGGGGACTGGGGACGTGCTA	-0.826
GACGGACTGCTTCGCCTGACGTGCTAG	0.00204
TTAGAGCTCAGTATCGATTAGTGCTAG	-0.354

Block 3
Target: Centromere-binding protein 1, full length, His-tagged (CBF1, Saccharomyces cerevisiae, UniProt P17106, residues 1-351)
Chain of UniProt P17106 (whole entry, looked up): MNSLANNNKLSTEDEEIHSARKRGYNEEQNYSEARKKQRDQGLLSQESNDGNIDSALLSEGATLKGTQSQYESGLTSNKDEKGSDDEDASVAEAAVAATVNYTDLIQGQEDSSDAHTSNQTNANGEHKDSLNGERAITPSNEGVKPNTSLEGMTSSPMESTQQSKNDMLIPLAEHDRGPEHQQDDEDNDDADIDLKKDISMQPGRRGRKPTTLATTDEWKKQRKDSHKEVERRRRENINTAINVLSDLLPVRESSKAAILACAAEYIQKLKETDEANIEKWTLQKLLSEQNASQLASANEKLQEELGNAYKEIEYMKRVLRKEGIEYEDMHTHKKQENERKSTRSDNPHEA
Method: competition protein-binding microarray
Form: double-stranded DNA, one strand shown
Sample: in vitro
Tested at: 2 µM
Notes: whole 60-bp probe, lowest competitor level
With: Pho4 competitor, 0.05 µM
Direction: higher = stronger binding
Strand	fluorescence intensity
GTCTTGTCTCATTGGATGGTGGGTGTCCCCACTTCAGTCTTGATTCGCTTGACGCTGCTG	74.5 a.u.
CTTTCCCGATCTTGAACAGTGGGTGTAGCACATTTGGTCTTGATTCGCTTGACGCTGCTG	74.1 a.u.
CAGGGGGACTCATCTCTCGTGAAGATCCAGGCTATGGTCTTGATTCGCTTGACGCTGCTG	54.2 a.u.
TTCTGCCCTTAATCGCACGTGCCAGAAGACCTGTACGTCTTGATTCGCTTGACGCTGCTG	1770 a.u.
AAAAGCAAATTTTCACACGTGAAGAAGTAAGCTGTTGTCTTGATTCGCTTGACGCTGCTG	737 a.u.
CTTTCCCGATCTTGGTGAGTGGGTGTAGCACATTTGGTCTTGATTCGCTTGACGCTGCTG	76.2 a.u.
ATATACATACACACATACATGCAAGCACATACATCCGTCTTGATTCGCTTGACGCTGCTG	120 a.u.

Other studies, line by line
Substance	target	assay	system	conditions	scale	quantity	result
PhoQ, residues 284 288 289 292 302 303 SSYNSA	PhoP, residues 12 14 15 18 19 SQCLL (Escherichia coli, UniProt P23836)	Sort-seq, measured: YFP reporter	E. coli	PhoQ-PhoP variant library, with: 10 µM Mg2+	reference: high Mg2+ state, higher = stronger signaling	fold induction	16.9

Some of these lines once more (block 2):
Strand	fitted relative affinity [z-score]
GACGATCTTAGTTTCGAGACGTGCTAG	4.05
GACGGACTGGCTATCGGGACGTGCTAG	-0.76
